Measured values of several laboratories.
Every numbered part comes from another study and shows a few of its results, in no order.

Set 1
Target: Fragile X messenger ribonucleoprotein 1, C-terminal low-complexity region (Fmr1, Mus musculus, UniProt P35922)
Method: RNA Bind-n-Seq
Form: RNA
Medium: in vitro
Tested at: 200 nM
Notes: whole 134-nt RNA, ends assumed
Added: 150 mM LiCl
Baseline: input library
Reading: higher = stronger binding
Measurement: log2 enrichment
All molecules: 7-deaza-guanosine replaces G
Shared flanks, not repeated: GGGAGUUCUACAGUCCGACGAUC … UGGAAUUCUCGGGUGUCAAGG
UCAAGUCCUGUGCUACACAUCGUAUGUACCGAAUCGGGGUUGGUUGGGUUGGGGAAAGUAUUAUGUUACGCCGUUCGGAUCUGCACUUCC: 0.028
UAACUUUAGAGGAGGAUCUGAUGGAUAUGGCAGUGGACGUGGAUUUGGGGAUGGCUAUAAUGGGUACGGAGGAGGACCUGGAGGUGGCAA: -0.202
AACAGACAACACGCACCCACACAGACACAGAGGGAAGGGGUUGGGAUGGGGACAGGGUGCACAGCAGGGCGGGGUAGGACCCCAGCCCCU: -0.163
CCUGUGCUACACAUCGUAUGUACCGAAUCGGGGUUUUUUGGUUUUUUGGGUUUUUUGGGGAAAGUAUUAUGUUACGCCGUUCGGAUCUGC: -1.78
AGUCCUGUGCUACACAUCGUAUGUACCGAAUCGGGUGGGAAAAAAAGGGAAAAAGGGAAAGUAUUAUGUUACGCCGUUCGGAUCUGCACU: -0.853
UGGGAGGUGGAUUUUGUUUAUUUUUUUAGCUCAUUUCCAGGGGUGGGAAUUUUUUUUUAAUAUGUGUCAUGAAUAGAGUUGUUUUUGAAA: 0.502
GUCCUGUGCUACACAUCGUAUGUACCGAAUCGGGUUUGGGUUUUUUUGGGAAAAAGGGAAAGUAUUAUGUUACGCCGUUCGGAUCUGCAC: -0.882
UCCAGCCACUCACCGGCGAUCCAGGUCCAGAACCCCCCUGAUAAGCCGACGUAGGUCCAGAUCUCGAACUUCACCAGUCAGCCGGAGACG: 1.24
AGUCCUGUGCUACACAUCGUAUGUACCGAAUCGGGUGGGAAAAAGGGUUUUUUUGGGAAAGUAUUAUGUUACGCCGUUCGGAUCUGCACU: -1.97
CCUGUGCUACACAUCGUAUGUACCGAAUCGGGCCCCCCCGGCCCCCCCGGGGCCCCCCCGGAAAGUAUUAUGUUACGCCGUUCGGAUCUG: 0.0196
CAAGUCCUGUGCUACACAUCGUAUGUACCGAAUCGGGGUUUGGUUUGGGGUUUGGAAAGUAUUAUGUUACGCCGUUCGGAUCUGCACUUC: -2.15

Set 2
Target: Interferon regulatory factor 5, full length, phosphomimetic (IRF5, Homo sapiens, UniProt Q13568-2, residues 1-514, K96S/S451D/S453D/S456D/S462D)
Method: protein-binding microarray
Form: double-stranded DNA, one strand shown
Medium: in vitro
Tested at: 250 nM
Notes: 60-bp whole probe
Added: salmon DNA 0.4 mg/ml
Baseline: random background probes
Reading: higher = stronger binding
Measurement: log fluorescence
Shared flanks, not repeated: GCCTAGCAC … GTCTTGATTCGCTTGACGCTGCTG
TTAGGTATCGGGTATCGGTTGGTGCTA: 6.31 z-score
TTAGGTTACGGTCTCGGTTAGTGCTAG: 0.753 z-score
GACGGACTGGGTATCGGGTCGTGCTAG: 1.01 z-score
TTAGGTATCCTTCTTCTTTAGTGCTAG: 0.648 z-score
TACGATATCGGGTATCGAGACGTGCTA: 2.74 z-score
TGTGGTGCAGCTCCCTCCTCGTGCTAG: -0.695 z-score
GACGGACTACTACTGCTGACGTGCTAG: -0.179 z-score
TTAGTTATCGGACTGGGTTAGTGCTAG: 1.37 z-score
GACGGTTTCGACTTTCGGGATGTGCTA: 8.78 z-score
ATAGGTCTCGGTCTCGGTTAGTGCTAG: 0.896 z-score
TTAGGTTTCCTTCTCCTTGAGTGCTAG: 1.1 z-score
TTAGAACTGAGTCGCGATTAGTGCTAG: 0.078 z-score
GTAGATATCAGACTGGATTAGTGCTAG: 0.039 z-score
TTTTTTTTCTGATCCATTTTGTGCTAG: 1.86 z-score
GACGGTTCCGCTTTCGGGACGTGCTAG: 4.17 z-score
TTAAGTCTCCTTCTCCTTTAGTGCTAG: 0.253 z-score
GACGGCTCCGGTTTCGGGACGTGCTAG: 2.54 z-score
GACGATTTCAGTTTCGATACGTGCTAG: 10 z-score
GACGATTTCGGGTATCAAGACGTGCTA: 4.31 z-score
GCCGATATCAGTCTCGAGACGTGCTAG: 1.82 z-score
AACGGACTGGGTCTCGGGACGTGCTAG: -0.644 z-score
ACAAGTTTCTCCTTTCCAAAGTGCTAG: 3.21 z-score
GGAGAAAAATCATGAAAATAGTGCTAG: 0.472 z-score
TTAGGTCTCCTTTTCCGTTAGTGCTAG: 0.221 z-score
TTAGGACTGGACCTTCGGTTAGTGCTA: 0.522 z-score

Set 3
Target: Histone acetyltransferase KAT6A, winged helix 1, GST fusion (KAT6A, Homo sapiens, UniProt Q92794, residues 1-85)
Method: protein binding microarray
Form: double-stranded DNA, one strand shown
Medium: in vitro
Tested at: not given
Notes: 8-mer, flanks averaged, mean of 2 arrays, mostly near background
Baseline: not given
Reading: higher = stronger binding
Measurement: E-score
Residues (chain): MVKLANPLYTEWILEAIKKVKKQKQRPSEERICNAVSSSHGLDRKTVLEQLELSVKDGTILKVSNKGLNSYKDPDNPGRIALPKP
TCCAGAGA: -0.134
ACGCCCGT: 0.385
AGATCGGG: 0.0686
AAGTTCGT: -0.189
CAACTACA: -0.175
AGCTATAT: -0.102
CCGCAACG: 0.296
GTCCCTCA: -0.133
TAGTGCGA: -0.0468
GACAGTGC: -0.0283
AAATAGAT: -0.204
GACCACTC: -0.0353
CCGCGTCG: 0.419
AGCAGCCC: -0.0292
ATAGACCA: -0.147
GTTAACTA: 0.161

Set 4
Target: RNA binding protein fox-1 homolog 2, RRM domain, GST-SBP tag (RBFOX2, Homo sapiens, UniProt O43251-10, residues 100-194)
Method: RNA Bind-n-Seq
Form: RNA
Medium: in vitro
Tested at: 365 nM
Notes: natural RNA segment, single round, ends assumed
Baseline: no-protein control
Reading: higher = stronger binding
Measurement: RBNS enrichment (R)
Shared flanks, not repeated: GGGAGUUCUACAGUCCGACGAUC … UGGAAUUCUCGGGUGCCAA
Residues (chain): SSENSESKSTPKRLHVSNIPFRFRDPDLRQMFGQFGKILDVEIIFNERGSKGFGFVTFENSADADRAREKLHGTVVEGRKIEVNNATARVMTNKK
AUACUGACUCCAGGUGUAGUUACAUCUCAGUGCUGUCUUGAGUAUAUAUUUUAUCUCUUAUACCUGUAUCUCCCAACUAGAAACAGCUCCAGUGUUUUUAAGAGAAUGUU: 0.915
CCUAGUCAUGGCAAAGAAGAUGUGACACGAGGGACCAGUCCCAGAGCAGCUACAGAAAGGGUGUGAGGCCCCAAAACCGUGUGCUGAGGGGCGAAUGCGUCGCCACCCCU: 1.05
UUCUACCCACCUAAACCCCCCAAAAAAGACAAAACGAAAAGAAGCCACUUCAUCUUAUGUGCCGCUGCUUGUCUUCAGCCCAUUAGCCAGGUACUGAGCGUCAGGCUCUG: 0.507
GGACACAUCUCUCUAUGCAAUUUGUCCCCACCCCACCCCGGCAUGAGAGGCCACGCAGCUCCCGACCCUCCGGCCUCCUCUCGCACAUGGAAGGUAUCAGCACUUUGAGA: 1.29
CGAAGCAUCCGCUUAGCAGCCUCUGCGUUGGAUCCUUGCACAGCCUUUUCCGGUGCCGUGGUUGGAGUGGGAGCCCACGCCUCGGGAGCUCUGGCCUUGCUCUUUCAAGU: 0.324
GUAGUUGUUUAACCAUCAUAUUUCUCUUUAAAGUACACAAAAUUCUUGGAUCUGGAAAGAUAACUCAACAGUCAAGAGUACUGGUUGUUCUUCCCCAAGGACCAAGGUUC: 0.587
UGGAGGAAAGCUCUUCUUGGUACAGUCUCCUCUUCCCACCAACUCCUCACGACUCUUCAUCAACCAAGGAGCCUCCAGACAGAGAGGAGGAAGAAGGAAUUCACUAGGUU: 0.399
UUUAAUAGUAACAUUAACAACAAGAAUACUAAGACUGUUUGGGAAUUUUAAAAAGCUACUAGUGAGAAACCAAAUGAUAGGUUGUAGAGCCUGAUGACUCCAAACAAAGC: 0.657
UUCUAGACUCUUAAAUAAUCACUGUAUUUUUCUCAAGUAUUUGUUAUUUUUUAUUAUCCUUUAGAUCUUUUUGUUCAUGGCUCUUUAAAAAUAGUUUUACUGAUAAUCCA: 1.46
GCAGAUACUGUGAGGCACAGAUUAUAUUGUCAAGCUACUGUUGCUAUGGUUAUAGACACCCACUUCAGACAUUACCAAGAGUCGAUCACUGACUUAAAAAUUUUAAUUUC: 0.583
UCACUCCCCGGUGCCUAUGGGGUCCCGGUGUACCUAAAGGGAGAAGGACCCCAUGUGCUAGCCAGAAAUAUACUGUCUCUUGAAGGAAAGCAGGAGCUCAGACUCUUAGA: 0.268
CUGUUUAAUUUUAAUUCAGUUGUUAAUGUGUCUUAGUGUGUGCAUUAUUUUCUUACUAUUAACCCAUGGUUUGCAGGCUCUGUUCAACCCUUUUCCUUCUUCCUAUCCCC: 0.462

A few entries again (set 2):
TACGATATCGGGTATCGAGACGTGCTA: 2.74 z-score
TGTGGTGCAGCTCCCTCCTCGTGCTAG: -0.695 z-score
GACGGACTACTACTGCTGACGTGCTAG: -0.179 z-score
TTAGTTATCGGACTGGGTTAGTGCTAG: 1.37 z-score
GACGGTTTCGACTTTCGGGATGTGCTA: 8.78 z-score
